Assay results gathered from unrelated publications.
A part holds a random share of what one study measured. Positions count from the first letter of the parent shown.

Series 1
Target: UDP-N-acetylglucosamine--peptide N-acetylglucosaminyltransferase 110 kDa subunit (OGT, Homo sapiens, UniProt O15294)
UniProt O15294, sequence (whole entry, looked up): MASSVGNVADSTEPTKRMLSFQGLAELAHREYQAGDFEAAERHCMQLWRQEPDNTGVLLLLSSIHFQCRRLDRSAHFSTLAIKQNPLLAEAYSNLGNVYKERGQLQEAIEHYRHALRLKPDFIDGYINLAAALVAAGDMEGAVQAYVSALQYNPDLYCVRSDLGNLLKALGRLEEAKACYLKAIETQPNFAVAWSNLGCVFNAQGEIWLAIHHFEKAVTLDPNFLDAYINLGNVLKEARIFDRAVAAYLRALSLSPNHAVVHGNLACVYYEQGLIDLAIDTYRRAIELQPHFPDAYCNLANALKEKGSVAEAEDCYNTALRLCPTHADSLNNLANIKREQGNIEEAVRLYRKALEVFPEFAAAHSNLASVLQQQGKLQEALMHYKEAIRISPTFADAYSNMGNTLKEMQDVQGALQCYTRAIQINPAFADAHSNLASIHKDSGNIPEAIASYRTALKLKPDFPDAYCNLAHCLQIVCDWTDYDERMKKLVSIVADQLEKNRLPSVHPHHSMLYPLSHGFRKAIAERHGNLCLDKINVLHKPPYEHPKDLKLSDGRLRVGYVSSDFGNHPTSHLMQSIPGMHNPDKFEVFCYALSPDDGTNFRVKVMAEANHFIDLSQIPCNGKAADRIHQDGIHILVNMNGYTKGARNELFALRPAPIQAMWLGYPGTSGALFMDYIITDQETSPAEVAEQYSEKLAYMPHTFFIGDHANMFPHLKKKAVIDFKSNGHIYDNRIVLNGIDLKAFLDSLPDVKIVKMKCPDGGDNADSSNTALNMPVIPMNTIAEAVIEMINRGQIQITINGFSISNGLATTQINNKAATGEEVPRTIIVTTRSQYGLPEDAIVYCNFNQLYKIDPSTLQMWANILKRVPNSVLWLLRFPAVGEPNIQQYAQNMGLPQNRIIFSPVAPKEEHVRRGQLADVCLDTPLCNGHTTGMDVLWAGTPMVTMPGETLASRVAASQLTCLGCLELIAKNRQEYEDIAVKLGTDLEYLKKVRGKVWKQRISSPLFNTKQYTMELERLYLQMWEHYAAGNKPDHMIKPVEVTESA
Observed: binding
Technique: phage display NGS
Molecule type: peptide
Baseline: input library
Molecule	minimum log2 enrichment ratio
HFDHYYNAHEDHVA	1.82
SFKHYDHTFHYHEGS	3.08
THIMTGHHGPIKGRD	1.91
HKPMLHHRWRDIDNL	3.2
THTYHPHHIPSDHVH	3.33
HFQEHTSHWHVYSTV	2.47
QHHWMHHEWQAHQPH	1.61
HVMHYHYQHGYTQP	2.59
HGHRLRSESHTHVRQ	1.25
HQAHRTHFPSRTDYV	2.01
SQYVSLLPQYQITLE	1.32
TVQHQRYYMHWKPHH	2.78
HSTPYHYSHVHEPYF	2.02
WDYIPMYQIQSVRG	3.23
YTPIQHHISHTHHAE	2.53
HVNSRFWFHTQDHHP	2.06
AHQNRYMPFYKIEFF	3.19
RVQHTFQHETGKHHH	2.6

Series 2
Target: inorganic phosphate, free oxyanion
Technique: microfluidic competitive inhibition
Sample: in vitro, cell-free expressed
Concentration: not given
Setting: derived from inhibition constants, unchanged parent 615000 nM
Direction: lower = stronger binding
Starting sequence: PafA, mature enzyme, eGFP fusion (Elizabethkingia meningoseptica, UniProt Q9KJX5); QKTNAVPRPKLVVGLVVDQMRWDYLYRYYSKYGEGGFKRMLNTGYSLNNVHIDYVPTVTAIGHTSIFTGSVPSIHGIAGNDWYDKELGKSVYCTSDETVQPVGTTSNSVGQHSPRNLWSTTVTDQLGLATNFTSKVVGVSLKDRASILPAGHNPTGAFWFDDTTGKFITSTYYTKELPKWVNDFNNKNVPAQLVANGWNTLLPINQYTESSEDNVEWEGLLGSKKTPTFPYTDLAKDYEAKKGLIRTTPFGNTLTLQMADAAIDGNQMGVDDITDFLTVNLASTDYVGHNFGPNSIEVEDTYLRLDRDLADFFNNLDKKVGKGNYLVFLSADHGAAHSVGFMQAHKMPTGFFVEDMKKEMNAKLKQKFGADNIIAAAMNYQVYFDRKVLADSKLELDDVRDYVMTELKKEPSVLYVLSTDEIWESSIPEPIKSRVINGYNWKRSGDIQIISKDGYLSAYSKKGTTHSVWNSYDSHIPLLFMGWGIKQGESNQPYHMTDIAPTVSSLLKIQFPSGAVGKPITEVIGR
Change	phosphate dissociation constant [µM]
S330V	773
L389G	593
K89V	595
V109A	695
S134G	576
F229V	519
K10G	532
S425G	617
V17G	484
D308V	622
A157G	602
T200G	487
P7G	552
P249G	728
P203G	503
W22V	496
L201V	627
K486V	695

Series 3
Target: Protein max, full length (MAX, Homo sapiens, UniProt P61244-2, residues 1-151)
Technique: protein-binding microarray
Molecule type: double-stranded DNA, one strand shown
Sample: in vitro
Concentration: not given
Setting: k-mer, scored over probes, only values ≥0.25
Direction: higher = stronger binding
Sequence	E-score
ATGTGACA	0.328
CATGGCGG	0.372
CCACGCAC	0.395
ACGCGGGA	0.382
CACCTGCC	0.343
AACGTGAG	0.329
ATGCGCCG	0.304
CCACGAGA	0.388

Series 4
Target: CCND1, cyclin fold, Cln2 fusion (human)
Technique: yeast growth competition, sequencing
Sample: yeast
Setting: strong parent motif
Baseline: not given
Direction: higher = stronger binding
Starting sequence: viral docking peptide; KGVKRKLFAEDSS; partner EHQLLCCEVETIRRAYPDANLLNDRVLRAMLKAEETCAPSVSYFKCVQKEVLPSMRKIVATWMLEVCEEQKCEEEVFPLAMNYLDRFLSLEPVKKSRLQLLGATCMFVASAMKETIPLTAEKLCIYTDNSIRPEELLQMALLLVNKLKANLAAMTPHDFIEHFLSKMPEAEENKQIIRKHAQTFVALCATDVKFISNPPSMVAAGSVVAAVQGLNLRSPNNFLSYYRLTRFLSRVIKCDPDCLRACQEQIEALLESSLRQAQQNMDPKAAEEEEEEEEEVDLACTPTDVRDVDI
Change	normalised enrichment score
E10T	0.409
F8I	0.0875
L7C	0.00346
E10M	0.455
V3I	1.17
K4W	0.226
K6D	-0.398
F8L	-0.0764
G2E	1.3
D11G	0.947
F8H	-0.242
E10K	0.085
K6V	1.01

Repeated from above (series 4):
Change	normalised enrichment score
L7C	0.00346
E10M	0.455
V3I	1.17
K4W	0.226
K6D	-0.398
